Measurements collected from several papers.
pEC50, pIC50: −log10 of the molar value.
Target: Voltage-gated inwardly rectifying potassium channel KCNH2 (KCNH2, Homo sapiens, UniProt Q12809)
Sequence of UniProt Q12809 (whole entry, looked up): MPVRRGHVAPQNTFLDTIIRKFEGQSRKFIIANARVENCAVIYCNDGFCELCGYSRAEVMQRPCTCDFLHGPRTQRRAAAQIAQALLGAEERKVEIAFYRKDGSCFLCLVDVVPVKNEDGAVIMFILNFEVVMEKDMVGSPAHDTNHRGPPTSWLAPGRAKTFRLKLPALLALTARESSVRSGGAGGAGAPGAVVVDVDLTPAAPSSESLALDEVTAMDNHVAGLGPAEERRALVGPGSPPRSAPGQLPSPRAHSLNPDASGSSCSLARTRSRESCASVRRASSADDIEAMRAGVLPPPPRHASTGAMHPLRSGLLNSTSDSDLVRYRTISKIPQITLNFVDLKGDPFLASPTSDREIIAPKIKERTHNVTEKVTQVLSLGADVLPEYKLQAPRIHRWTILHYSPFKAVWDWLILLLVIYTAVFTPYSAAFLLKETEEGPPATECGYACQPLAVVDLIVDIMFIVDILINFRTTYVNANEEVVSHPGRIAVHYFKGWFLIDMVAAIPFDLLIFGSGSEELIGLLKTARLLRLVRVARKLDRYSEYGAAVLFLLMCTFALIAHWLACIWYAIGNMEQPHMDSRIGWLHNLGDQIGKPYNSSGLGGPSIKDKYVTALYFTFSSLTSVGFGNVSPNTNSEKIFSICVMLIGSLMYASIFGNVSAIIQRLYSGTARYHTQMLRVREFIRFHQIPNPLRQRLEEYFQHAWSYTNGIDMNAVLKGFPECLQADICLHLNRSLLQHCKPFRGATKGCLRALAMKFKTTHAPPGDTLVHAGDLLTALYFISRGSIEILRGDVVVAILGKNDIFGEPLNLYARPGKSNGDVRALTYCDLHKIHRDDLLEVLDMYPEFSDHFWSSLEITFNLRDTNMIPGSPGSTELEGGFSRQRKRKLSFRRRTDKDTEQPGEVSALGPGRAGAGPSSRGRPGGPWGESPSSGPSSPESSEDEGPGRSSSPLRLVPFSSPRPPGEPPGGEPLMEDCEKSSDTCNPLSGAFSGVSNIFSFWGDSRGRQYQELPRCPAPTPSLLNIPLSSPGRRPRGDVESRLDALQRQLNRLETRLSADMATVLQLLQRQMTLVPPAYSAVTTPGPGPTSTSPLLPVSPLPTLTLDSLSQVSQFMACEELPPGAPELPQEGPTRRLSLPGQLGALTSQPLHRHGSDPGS

O=C(Nc1cccnn1)N1CCC(=Cc2cccc(Oc3ccc(C(F)(F)F)cn3)c2)CC1  inhibition of binding (radioligand binding; 50 µM, human channel, with: [3H]astemizole): 87%
Cn1nccc1[C@]1(CNC(=O)c2ccc(F)c(F)c2-c2ccc(C(F)(F)F)cc2)NC(=O)NC1=O  pIC50 (no inhibition up to value): < 5.00
CCOc1ccc2cc(-c3nn(CC4CCNCC4)c4ncnc(N)c34)ccc2c1  pEC50 (thallium flux, inhibitor): 5.78
Cn1c(=O)ccc2ccc(F)c(CCNC[C@H]3CN(c4cnc5c(n4)NC(=O)CO5)C(=O)O3)c21  pIC50 (potassium channel activity, inhibitor; human cells): 4.25
O=C(Nc1cnccc1Cl)N1CCN(Cc2ccc3c(c2)OC(F)(F)O3)CC1  inhibition of binding (radioligand binding; 10 µM, human channel, with: [3H]astemizole): 29%
CN[C@]1(c2ccccc2Cl)CCCCC1=O  inhibition (radioligand binding, radioligand displacement; 30 µM): 2%
Nc1ncc(-c2nc(N3CCOCC3)nc(N3CCOCC3)n2)c(C(F)F)n1  remaining binding (radioligand binding, antagonist ligand; membrane preparation; 10 µM, time not given): 116%
CS(=O)(=O)Nc1ncn(-c2cc(F)c(COc3ccc(OS(=O)(=O)F)cc3)c(F)c2)n1  pIC50 (inhibitor): < 4.52
CN(C(=O)n1cnc(-c2ccc[n+]([O-])c2)c1)C1CCCCC1  inhibition of binding (radioligand binding; 50 µM, human channel, with: [3H]astemizole): 11%
Cc1ccc2cc(N3CCC4(O)C(=O)c5cc(C)c(C)cc5N=C34)ccc2n1 (centres unmarked)  hERG inhibition (patch clamp; CHO; 10 µM): negative
COc1ccc(CCC2CCCC(CCc3ccc(OC)cc3)N2C[C@@H](O)CO)cc1 (stereo in doubt)  pIC50 (binding, radioligand displacement; with: [3H]dofetilide): ~6.10
CCOc1ccc2cc(-c3nn(CC4CCN(C)CC4)c4ncnc(N)c34)ccc2c1  pEC50 (thallium flux, inhibitor): 6.52
Brc1ccc2c(c1)C(c1ccccn1)=NCc1c(-c3cnco3)ncn1-2  inhibition (binding, radioligand binding; up to 100 mM): ≤ 50%
C[C@@H](O)[C@H](N)C(=O)N1CCC[C@H]1C(=O)N1CCC[C@H]1C(=O)N[C@H](C(N)=O)[C@@H](C)O  inhibition (radioligand binding, radioligand displacement; 30 µM): -6%

Repeated from above:
CS(=O)(=O)Nc1ncn(-c2cc(F)c(COc3ccc(OS(=O)(=O)F)cc3)c(F)c2)n1  pIC50 (inhibitor): < 4.52
CN(C(=O)n1cnc(-c2ccc[n+]([O-])c2)c1)C1CCCCC1  inhibition of binding (radioligand binding; 50 µM, human channel, with: [3H]astemizole): 11%
